Earlier results that unrelated publications cite.
Each numbered part shows a few of the values that one paper quotes. pIC50: −log10 of the molar value.

Study 1
Target: HLA class I histocompatibility antigen, B alpha chain, allele B*08:02 (Homo sapiens, UniProt P01889)
Observed: peptide-MHC binding
Form: peptide
Molecule | pIC50
FLIRRFFMF | 7.51
YARRYFYPL | 7.37
FMKSRVYSI | 7.39

Mixed results
Structure (SMILES) | target or system | assay | system | setting | endpoint | result
C[C@@H]1[C@H](O)[C@@H](C)/C=C/C=C/CC/C=C/C=C/C=C/C=C/C(O[C@H]2O[C@H](C)[C@@H](O)[C@H](N)[C@@H]2O)CC2O[C@](O)(CC(O)C(O)CCC(O)CC(O)CC(O)CC(=O)O[C@H]1C)CC(O)C2C(=O)O (some centres unmarked) |  | solubility in supercritical CO2 |  |  | crossover pressure | ~24 MPa
O=c1ccn([C@@H]2O[C@H](CO)[C@@H](O)[C@H]2O)c(=O)[nH]1 | Uridine nucleoside ribohydrolase (Trichomonas vaginalis, UniProt A2FTT0) | hydrolysis in cells, substrate, 13C-edited 1H NMR |  |  | Km | 39 µM
COC[C@@H](NC(C)=O)C(=O)NCc1ccccc1 |  |  | human, plasma | oral | therapeutic plasma concentration range | 2 to 5 µg/mL
Nc1nc2c(ncn2[C@@H]2O[C@H](CO)[C@@H](O)[C@H]2O)c(=O)[nH]1 | Adenosine/guanosine nucleoside ribohydrolase (Trichomonas vaginalis, UniProt A2EYV3) | hydrolysis in cells, substrate, 13C-edited 1H NMR |  | hydrolysis blocked by forodesine | Km | 121 µM
O=C/C=C/c1ccccc1 |  |  | human plasma | concentration not given | plasma concentration | not detected

A few entries again (mixed results):
Structure (SMILES) | target or system | assay | system | setting | endpoint | result
Nc1nc2c(ncn2[C@@H]2O[C@H](CO)[C@@H](O)[C@H]2O)c(=O)[nH]1 | Adenosine/guanosine nucleoside ribohydrolase (Trichomonas vaginalis, UniProt A2EYV3) | hydrolysis in cells, substrate, 13C-edited 1H NMR |  | hydrolysis blocked by forodesine | Km | 121 µM
